Experimental data pooled from the literature.
Every numbered part comes from another study and shows a few of its results, in no order.

The chains behind the UniProt entries cited, without tags or fusion partners.
UniProt P51451, whole entry: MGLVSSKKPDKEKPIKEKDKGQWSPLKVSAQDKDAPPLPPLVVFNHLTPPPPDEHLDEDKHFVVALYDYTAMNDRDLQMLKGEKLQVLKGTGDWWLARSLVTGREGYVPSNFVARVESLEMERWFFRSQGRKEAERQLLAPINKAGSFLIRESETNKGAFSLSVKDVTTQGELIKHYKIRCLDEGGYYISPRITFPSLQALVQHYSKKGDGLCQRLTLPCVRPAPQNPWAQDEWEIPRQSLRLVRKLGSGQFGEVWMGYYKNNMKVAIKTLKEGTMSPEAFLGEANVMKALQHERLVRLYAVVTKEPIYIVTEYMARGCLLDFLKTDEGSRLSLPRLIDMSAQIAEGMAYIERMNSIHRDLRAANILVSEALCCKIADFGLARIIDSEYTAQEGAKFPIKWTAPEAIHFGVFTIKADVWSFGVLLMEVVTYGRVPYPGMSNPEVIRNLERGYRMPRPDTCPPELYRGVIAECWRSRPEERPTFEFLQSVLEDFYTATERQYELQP
UniProt Q14296, whole entry: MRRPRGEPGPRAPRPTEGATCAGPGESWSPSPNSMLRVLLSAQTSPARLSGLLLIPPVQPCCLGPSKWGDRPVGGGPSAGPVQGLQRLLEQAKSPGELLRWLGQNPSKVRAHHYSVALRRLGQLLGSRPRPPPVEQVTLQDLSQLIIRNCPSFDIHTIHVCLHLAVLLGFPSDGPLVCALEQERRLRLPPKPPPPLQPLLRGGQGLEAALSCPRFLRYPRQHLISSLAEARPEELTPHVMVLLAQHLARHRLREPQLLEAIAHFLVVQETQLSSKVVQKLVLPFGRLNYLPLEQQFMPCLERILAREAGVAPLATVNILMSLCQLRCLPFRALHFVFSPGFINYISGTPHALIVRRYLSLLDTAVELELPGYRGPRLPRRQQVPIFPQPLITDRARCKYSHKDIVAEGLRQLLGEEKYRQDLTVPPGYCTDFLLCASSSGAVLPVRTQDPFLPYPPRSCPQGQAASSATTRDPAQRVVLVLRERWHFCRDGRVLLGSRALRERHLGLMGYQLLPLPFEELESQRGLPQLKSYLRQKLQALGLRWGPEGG
UniProt Q8TAS1, whole entry: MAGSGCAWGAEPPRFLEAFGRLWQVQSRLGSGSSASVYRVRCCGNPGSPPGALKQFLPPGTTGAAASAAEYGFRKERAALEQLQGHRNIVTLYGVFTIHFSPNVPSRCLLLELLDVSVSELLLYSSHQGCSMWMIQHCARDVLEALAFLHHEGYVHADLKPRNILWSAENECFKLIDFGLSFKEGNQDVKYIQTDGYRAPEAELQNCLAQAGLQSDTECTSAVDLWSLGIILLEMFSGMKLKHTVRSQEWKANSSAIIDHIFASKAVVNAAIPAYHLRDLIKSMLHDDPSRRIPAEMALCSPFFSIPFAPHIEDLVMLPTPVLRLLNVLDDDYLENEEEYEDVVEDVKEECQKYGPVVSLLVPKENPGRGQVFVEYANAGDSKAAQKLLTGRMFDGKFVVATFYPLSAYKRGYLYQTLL
UniProt P06213, whole entry, looked up: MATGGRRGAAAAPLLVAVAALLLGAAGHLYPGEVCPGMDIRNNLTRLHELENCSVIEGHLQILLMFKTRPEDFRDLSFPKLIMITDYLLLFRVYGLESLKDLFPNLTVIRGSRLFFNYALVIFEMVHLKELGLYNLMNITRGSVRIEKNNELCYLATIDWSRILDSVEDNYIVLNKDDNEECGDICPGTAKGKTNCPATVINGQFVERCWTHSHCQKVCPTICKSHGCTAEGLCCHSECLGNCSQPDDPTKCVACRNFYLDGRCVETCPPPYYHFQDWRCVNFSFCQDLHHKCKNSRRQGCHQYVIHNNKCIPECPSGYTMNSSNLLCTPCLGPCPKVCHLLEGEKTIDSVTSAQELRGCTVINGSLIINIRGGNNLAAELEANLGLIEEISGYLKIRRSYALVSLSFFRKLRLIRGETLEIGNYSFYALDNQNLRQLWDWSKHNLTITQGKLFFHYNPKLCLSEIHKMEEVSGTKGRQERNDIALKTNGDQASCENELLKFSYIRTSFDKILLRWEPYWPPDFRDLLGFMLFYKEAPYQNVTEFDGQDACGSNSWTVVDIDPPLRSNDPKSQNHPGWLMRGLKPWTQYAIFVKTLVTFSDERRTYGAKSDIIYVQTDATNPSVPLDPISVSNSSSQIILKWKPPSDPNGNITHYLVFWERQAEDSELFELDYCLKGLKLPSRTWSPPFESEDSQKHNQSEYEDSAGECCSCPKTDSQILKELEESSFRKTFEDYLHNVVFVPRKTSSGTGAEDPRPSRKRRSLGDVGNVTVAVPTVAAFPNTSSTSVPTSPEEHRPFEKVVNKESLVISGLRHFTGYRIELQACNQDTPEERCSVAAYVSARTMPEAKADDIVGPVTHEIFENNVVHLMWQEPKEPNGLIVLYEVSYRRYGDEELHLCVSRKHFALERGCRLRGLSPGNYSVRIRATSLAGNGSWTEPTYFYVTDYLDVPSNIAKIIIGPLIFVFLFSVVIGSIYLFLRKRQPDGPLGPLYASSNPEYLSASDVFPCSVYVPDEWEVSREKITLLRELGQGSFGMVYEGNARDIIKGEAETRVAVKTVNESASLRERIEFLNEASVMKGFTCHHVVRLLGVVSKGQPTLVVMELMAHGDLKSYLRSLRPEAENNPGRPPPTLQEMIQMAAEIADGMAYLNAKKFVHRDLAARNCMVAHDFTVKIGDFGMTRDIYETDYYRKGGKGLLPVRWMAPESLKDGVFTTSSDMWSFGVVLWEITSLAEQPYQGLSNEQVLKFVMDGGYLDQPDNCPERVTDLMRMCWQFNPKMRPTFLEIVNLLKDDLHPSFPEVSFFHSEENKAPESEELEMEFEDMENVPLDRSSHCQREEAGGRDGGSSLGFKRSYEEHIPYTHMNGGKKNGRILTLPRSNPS
UniProt P10586, whole entry, looked up: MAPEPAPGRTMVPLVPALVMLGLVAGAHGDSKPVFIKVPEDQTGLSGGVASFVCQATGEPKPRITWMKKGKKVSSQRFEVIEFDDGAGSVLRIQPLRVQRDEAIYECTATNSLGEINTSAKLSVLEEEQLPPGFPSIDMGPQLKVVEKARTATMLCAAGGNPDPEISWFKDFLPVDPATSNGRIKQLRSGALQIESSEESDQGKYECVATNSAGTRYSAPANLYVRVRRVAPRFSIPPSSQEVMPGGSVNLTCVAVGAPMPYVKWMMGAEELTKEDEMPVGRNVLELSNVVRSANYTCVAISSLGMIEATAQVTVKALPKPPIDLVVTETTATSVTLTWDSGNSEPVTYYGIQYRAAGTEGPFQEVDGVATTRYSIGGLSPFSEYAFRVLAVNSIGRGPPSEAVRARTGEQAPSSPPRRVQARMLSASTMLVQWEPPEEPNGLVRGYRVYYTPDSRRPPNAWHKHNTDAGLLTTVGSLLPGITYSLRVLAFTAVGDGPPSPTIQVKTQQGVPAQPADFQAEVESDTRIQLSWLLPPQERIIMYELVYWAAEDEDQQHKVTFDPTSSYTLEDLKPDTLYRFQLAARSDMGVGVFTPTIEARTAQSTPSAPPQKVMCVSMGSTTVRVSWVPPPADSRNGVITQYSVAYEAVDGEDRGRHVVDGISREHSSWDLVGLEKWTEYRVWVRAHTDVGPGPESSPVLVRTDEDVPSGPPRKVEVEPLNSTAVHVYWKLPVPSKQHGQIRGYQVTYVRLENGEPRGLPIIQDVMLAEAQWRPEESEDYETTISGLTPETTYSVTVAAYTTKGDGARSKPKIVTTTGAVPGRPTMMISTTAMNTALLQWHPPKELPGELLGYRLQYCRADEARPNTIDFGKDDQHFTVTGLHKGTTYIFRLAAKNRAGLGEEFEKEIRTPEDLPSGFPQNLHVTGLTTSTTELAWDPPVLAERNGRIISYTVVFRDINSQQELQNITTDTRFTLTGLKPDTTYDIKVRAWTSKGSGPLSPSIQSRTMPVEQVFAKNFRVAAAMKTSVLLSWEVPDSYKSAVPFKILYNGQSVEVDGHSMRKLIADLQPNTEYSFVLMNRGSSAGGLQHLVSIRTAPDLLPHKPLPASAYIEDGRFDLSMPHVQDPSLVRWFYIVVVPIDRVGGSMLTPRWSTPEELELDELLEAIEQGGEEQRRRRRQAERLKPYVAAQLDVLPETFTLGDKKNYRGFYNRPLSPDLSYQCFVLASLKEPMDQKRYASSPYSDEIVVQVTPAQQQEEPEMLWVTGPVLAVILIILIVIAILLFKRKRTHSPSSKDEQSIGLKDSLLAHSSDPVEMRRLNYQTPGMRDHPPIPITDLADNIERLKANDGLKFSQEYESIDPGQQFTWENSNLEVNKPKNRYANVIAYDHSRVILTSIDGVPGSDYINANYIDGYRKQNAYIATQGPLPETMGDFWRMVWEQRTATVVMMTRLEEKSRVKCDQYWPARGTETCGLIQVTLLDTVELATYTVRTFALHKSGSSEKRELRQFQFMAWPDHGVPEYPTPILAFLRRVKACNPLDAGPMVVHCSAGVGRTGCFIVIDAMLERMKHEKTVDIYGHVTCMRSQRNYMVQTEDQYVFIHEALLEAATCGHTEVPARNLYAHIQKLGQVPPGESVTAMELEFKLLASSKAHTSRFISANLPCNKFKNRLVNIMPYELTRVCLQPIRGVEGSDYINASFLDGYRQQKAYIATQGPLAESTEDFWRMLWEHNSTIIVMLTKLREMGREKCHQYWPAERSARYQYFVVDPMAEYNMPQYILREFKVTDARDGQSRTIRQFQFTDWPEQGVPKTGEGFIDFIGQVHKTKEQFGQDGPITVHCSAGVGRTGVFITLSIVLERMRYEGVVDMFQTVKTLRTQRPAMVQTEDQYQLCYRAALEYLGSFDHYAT
UniProt P04150, whole entry: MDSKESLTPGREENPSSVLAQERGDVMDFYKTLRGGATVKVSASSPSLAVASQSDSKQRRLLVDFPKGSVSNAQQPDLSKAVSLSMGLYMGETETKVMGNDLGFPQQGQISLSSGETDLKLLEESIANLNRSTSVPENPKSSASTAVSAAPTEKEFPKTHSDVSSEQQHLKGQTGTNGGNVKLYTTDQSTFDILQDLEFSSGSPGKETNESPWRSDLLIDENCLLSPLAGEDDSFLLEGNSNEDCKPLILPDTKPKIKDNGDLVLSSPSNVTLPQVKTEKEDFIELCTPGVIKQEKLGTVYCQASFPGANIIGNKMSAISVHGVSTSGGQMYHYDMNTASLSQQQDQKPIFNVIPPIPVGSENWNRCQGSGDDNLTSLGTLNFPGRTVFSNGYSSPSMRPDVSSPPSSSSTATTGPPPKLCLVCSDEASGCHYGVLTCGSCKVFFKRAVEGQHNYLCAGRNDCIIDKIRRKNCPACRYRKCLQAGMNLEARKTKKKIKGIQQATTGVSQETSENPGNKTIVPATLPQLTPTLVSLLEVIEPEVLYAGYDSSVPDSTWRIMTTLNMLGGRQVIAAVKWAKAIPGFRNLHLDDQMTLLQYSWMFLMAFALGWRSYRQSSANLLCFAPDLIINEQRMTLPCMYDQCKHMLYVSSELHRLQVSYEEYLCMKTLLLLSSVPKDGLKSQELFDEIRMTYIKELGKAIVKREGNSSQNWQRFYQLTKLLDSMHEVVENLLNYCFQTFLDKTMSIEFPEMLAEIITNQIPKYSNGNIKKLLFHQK

Block 1
Compound: CCN1CCN(Cc2ccc(NC(=O)c3ccc(C)c(/C=C/c4cnc5[nH]ccc5c4OC)c3)cc2C(F)(F)F)CC1
Mode: inhibitor
Tested at: 5 µM
| target | assay | system | scale | log2 fold change |
| --- | --- | --- | --- | --- |
| Tyrosine-protein kinase Blk (BLK, Homo sapiens, UniProt P51451) | cell-based kinome screen |  | baseline: no inhibitor | -0.062 |
| Fas-activated serine/threonine kinase (Homo sapiens, UniProt Q14296) | cell-based kinome screen, refers to: FASTK | human cells | baseline: vehicle | 0.134 |
| Serine/threonine-protein kinase Kist (UHMK1, Homo sapiens, UniProt Q8TAS1) | kinase-CDC37 interaction | human cells | baseline: vehicle | 0.139 |

Other studies, line by line
| SMILES | target | assay | conditions | quantity | value |
| --- | --- | --- | --- | --- | --- |
| CC#C/C(=N\OC[C@H]1COCCN1)c1ccc2ncnc(Nc3ccc(OCc4cccc(F)c4)c(Cl)c3)c2c1 | Insulin receptor (INSR, Homo sapiens, UniProt P06213) | kinase activity | 10 µM | inhibition | 2.5% |
| COc1cc(CC(=O)NCC(NC(=O)C(CCCNC(=O)c2cccc(I)c2)NC(=O)C(Cc2ccc(C(F)(F)P(=O)(O)O)cc2)NC(=O)c2ccc(C)c(Br)c2)C(N)=O)ccc1O (stereo not drawn) | Receptor-type tyrosine-protein phosphatase F (Homo sapiens, UniProt P10586) | enzyme activity | 10 µM | inhibition | no inhibition |
| C[C@@]12C[C@H](O)C3[C@H](CCC4=CC(=O)CC[C@]43C)[C@H]1CC[C@@H]2c1csc(-c2ccccc2)n1 (stereo partly drawn) | Glucocorticoid receptor (NR3C1, Homo sapiens, UniProt P04150) | nuclear translocation, agonist, enzyme fragment complementation |  | EC50 | > 9 µM |

For quick reference, copied from above (other studies, line by line):
| SMILES | target | assay | conditions | quantity | value |
| --- | --- | --- | --- | --- | --- |
| CC#C/C(=N\OC[C@H]1COCCN1)c1ccc2ncnc(Nc3ccc(OCc4cccc(F)c4)c(Cl)c3)c2c1 | Insulin receptor (INSR, Homo sapiens, UniProt P06213) | kinase activity | 10 µM | inhibition | 2.5% |
